Measured values pooled from the literature.
Numbered parts are unrelated; each lists some results of a single study. Changes are numbered by the printed parent chain.

Set 1
Target: Histone acetyltransferase KAT6A, winged helix 2, GST fusion (KAT6A, Homo sapiens, UniProt Q92794, residues 85-181)
Method: protein binding microarray
Molecule type: double-stranded DNA, one strand shown
Matrix: in vitro
Tested at: not given
Setting: 8-mer, flanks averaged, mean of 2 arrays, mostly near background
Reference: not given
Reading: higher = stronger binding
Endpoint: E-score
Residues (chain): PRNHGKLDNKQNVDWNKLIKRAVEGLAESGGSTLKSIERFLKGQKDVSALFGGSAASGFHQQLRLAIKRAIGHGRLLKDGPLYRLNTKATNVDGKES
GAAATAGA: 0.174
ACTTTCCA: -0.109
ACCACCGA: -0.077
AACCTAAG: -0.113
ACTGGCCC: 0.242
GCCACCGC: 0.185
AGCTGAGC: 0.0525
GAACTTCA: -0.00726
CCCTCCAG: 0.0872
GCATTTTA: 0.156
CAGGCTTC: 0.101
GACGCTGA: -0.0512
CCACGAGA: -0.0169
CCTAACGA: -0.042
ACCCTTCG: 0.0678
AGACCATG: -0.102
CTACTACC: -0.0821
CCAAGTCA: -0.126
GTAACATA: -0.0388
CTTGTGCC: -0.0103
GTATACGA: 0.00267
GCCTCGGA: 0.0298
CACATAGC: -0.0124
AGGAAGGC: 0.148
CACGAGAG: -0.157

Set 2
Target: CCNE2, cyclin fold, Cln2 fusion (human)
Method: yeast growth competition, sequencing
Matrix: yeast
Setting: weak parent motif
Reference: not given
Reading: higher = stronger binding
Endpoint: normalised enrichment score
Starting sequence: PKMYT1 docking peptide (human); SFEPRNLLSLFED; partner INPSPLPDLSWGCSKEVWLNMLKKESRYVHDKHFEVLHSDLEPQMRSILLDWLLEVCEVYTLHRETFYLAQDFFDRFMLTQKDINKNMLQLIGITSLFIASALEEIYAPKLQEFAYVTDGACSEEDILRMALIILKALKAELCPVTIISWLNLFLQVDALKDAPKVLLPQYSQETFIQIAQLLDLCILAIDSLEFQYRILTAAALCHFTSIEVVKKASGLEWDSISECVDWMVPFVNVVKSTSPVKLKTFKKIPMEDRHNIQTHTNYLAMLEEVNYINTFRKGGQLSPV
SFEHRNLLSLFED [P4H]: -0.152
SGEPRNLLSLFED [F2G]: -0.159
SFEPANALSLFED [R5A L7A]: -0.446
SNEPRNLLSLFED [F2N]: -0.712
SFEPRNLLSNFED [L10N]: 0.513
SAEPRNLLSLFED [F2A]: -0.137
WFEPRNLLSLFED [S1W]: 0.574
SFEMRNLLSLFED [P4M]: 0.184
SFEPNNLLSLFED [R5N]: -0.118
SFEPRELLSLFED [N6E]: -0.328
SFEPRNLLSLGED [F11G]: -0.374
SFTPRNLLSLFED [E3T]: -0.528
SFEPRNLLSLFEE [D13E]: -0.171
SFEPRNLLSDFED [L10D]: 0.345
SFEPRNLLSLWED [F11W]: 0.447
PFEPRNLLSLFED [S1P]: 0.176
SFEPRNLHSLFED [L8H]: -0.546
SFEPRNLLSLRED [F11R]: -0.48
SFEPRNSLSLFED [L7S]: -0.338
SFEPRNLLWLFED [S9W]: 0.117
SFEPRNLLSAFED [L10A]: 0.538
SFEPRMLLSLFED [N6M]: -0.722
SFEPRNLLSLNED [F11N]: -0.407
SFEPRDLLSLFED [N6D]: -1.05
SFEDRNLLSLFED [P4D]: -1.06

Set 3
Target: RING finger protein unkempt homolog, zinc fingers 1-6, GST-SBP tag (UNK, Homo sapiens, UniProt Q9C0B0, residues 30-357)
Sequence of UniProt Q9C0B0 (30-357, looked up): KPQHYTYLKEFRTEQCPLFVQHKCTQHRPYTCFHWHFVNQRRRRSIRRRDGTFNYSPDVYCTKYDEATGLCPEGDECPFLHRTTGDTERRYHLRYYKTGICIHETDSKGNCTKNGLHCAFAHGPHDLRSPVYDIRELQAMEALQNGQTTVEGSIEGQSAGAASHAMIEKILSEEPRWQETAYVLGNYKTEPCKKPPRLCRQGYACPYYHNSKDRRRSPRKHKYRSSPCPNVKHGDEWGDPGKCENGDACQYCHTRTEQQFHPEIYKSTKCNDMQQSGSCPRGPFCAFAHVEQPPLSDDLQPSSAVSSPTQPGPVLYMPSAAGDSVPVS
Method: RNA Bind-n-Seq
Molecule type: RNA
Matrix: in vitro
Tested at: not given
Setting: RNA with constant flanks, human and mouse sites, ends assumed
Reference: input RNA pool
Reading: higher = stronger binding
Endpoint: bound/input enrichment
All sequences stand within: GGGAGUUCUACAGUCCGACGAUC … CAACAGAGGAUUGAGCAUCA
GAGGAAGUUCAUGAUCUCGAGAGGAAGUAUGCUGUUCUCUAUCAGCCUUUAUUUGAUAAGCGAUUUGAGAUCAUUAAUGCAAUCUAUGAACCUACAGAAGAAGAAUGCGAGUGGAAACCA: 0.14 ratio
GAACAUAUUCUUAAAUAUGAGGAAUCUCUAGCUGACUCAGACAAUAAAGGUGUAAAUUCUGGAAGAUUGGUAGCUUGUAUAACCACUUUGUUCUUAUUCAGCAAAAUAAGACCCCAACUC: 0.188 ratio
GCUGAAGAUGACAGCAAAAUAGAUUCAUGAAGUUUUUUGCCUCCCACGUUGGGAAGUCCUUAGUGAAGAAUUCUCCCAUGGGCCGUUCACUGUCCUUCUCCAGGCCCCUAUCUGUCCUCC: 0.496 ratio
UUCUUUCCCUUCGGCGUUAUUUAUUUGUGUAUUUAUUUAUUUAUUUAUUUAUUUAUCUAUCUAUCUAUCAACUUUUGGUCCAUUCAUCACCAACAUAAAGCAAAAACAAUUUUUUACAUA: 11.1 ratio
GUUCUUAAAGAUGUGGGAUUGAAAAAAGAAGAUAUUGCAAUGUGGGAAGUAAAUGAAGCCUUUAGUCUGGUUGUACUAGCAAACAUUAAAAUGUUGGAGAUUGAUCCCCAAAAAGUGAAU: 0.325 ratio
GUACUGUCUCUUUUGGAAAAGUUCUUGAUCCCCAAUGCUUCGCAACCAGAAAGCAAAGUCUUCUAUUUGAAAAUGAAGGGUGACUACUACCGUUACUUGGCCGAGGUUGCUGCUGGUGAU: 0.156 ratio
AACUUCUCCGACUACAUCCGUGGAGGCAUCGUCAGUCAGGUCAAAGUACCUAAGAAGAUUAGCUUUAAAUCCUUGGUGGCCUCACUGGCAGAACCUGACUUUGUGGUGACGGACUUCGCC: 0.191 ratio
UUAAUUUUUUUAAUUUUUUUAUUUUUUAUUUUCUUUUUGGUUUGGGGAGGGAGAAAAGUUCUUAGCACAAAUGUUUUACAUAAUUUGUACCAAAAAAAAAAAAAAAGGAAAGGAAAGAAA: 3.42 ratio

Set 4
Target: RNA binding protein fox-1 homolog 2, RRM domain, GST-SBP tag (RBFOX2, Homo sapiens, UniProt O43251-10, residues 100-194)
Method: RNA Bind-n-Seq
Molecule type: RNA
Matrix: in vitro
Tested at: 365 nM
Setting: natural RNA segment, single round, ends assumed
Reference: no-protein control
Reading: higher = stronger binding
Endpoint: RBNS enrichment (R)
All sequences stand within: GGGAGUUCUACAGUCCGACGAUC … UGGAAUUCUCGGGUGCCAA
Construct (chain): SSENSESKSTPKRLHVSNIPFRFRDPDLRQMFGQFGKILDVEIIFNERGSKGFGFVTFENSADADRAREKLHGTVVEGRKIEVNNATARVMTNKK
AACAGUAAUCAAUCUAUCACUGUUGAAGUCCUGGUUUUCUCAACCAAAUUUUAAGUCUUUCCCAGGUAUGUCAGUCGAGUUGCCAUGAAUCCUCACCUGUAGGAGUUUCU: 0.332
CUUCUCAGCAGUCUCAUUCAAGCUAAGGCUUGCAUACUCAAUCUGUGCCGUAGUCUACACAUUUUUAGGGGAUAUUUCACCAAAAUACUUGACAUGGUAACAUCACUAUU: 0.344
CCUGCAGAGCCAUAGCUUCAAUGUUCUAAGAUCACUGUGACUGGUCAGGAGGACAGGACGCUGCUUUAGGGAAGUAUCAAAUUCCGUAUUGAAGAAAAGCUUUCAGAGGG: 0.398
CUCCCUAGUCACCUCCAUUAACCACAGACUAUGUAGCGCUGGCCCUAGCCUCUGGCAGAGCCUGUUCCUGGCCGAACUGUGGAUACAGCUGGAGGGUCAGGAACUGUUAC: 0.323
UCAGCGCAGUUUUGUUUUGUGUGUCCAUUGGAUUACAAACUUUAUUAAAAAAUAUAAAACACACCAAGUGUGAGUGUGAUUGUCACUUGGGUGGGAGGACGAACCAUGGG: 0.504
GCCGGGACGGGCCGGCGGGCACCAGGCUGGGGUCUCCUUGUCUGUGCUCUGAUAUGCUCCUUGACUGAAACUUUAAGGGGAUCUCUCCCAGAGACUUGACAUUUUAGCUU: 0.519
AACCAAGCAAGCAAGCAAGAGCAUCCAGUUGUGAUUAGGGUUAAAAUCAUCCAUCCUAAUUAAUGAUUUGGAAAGUUUGACUCUCUUCCUCUCAAGUGUCUUGUGGAGUC: 0.783
AAAUUCAGUAAUGCAGUUUUUAAAAACCUGUAUCUGACCCACUUUGUAAUUUUUGCUCCAAUAUCCAUUCUGUAGACUUUUGAAAAAAAAGUUUUUAAUUUGAUGCCCAA: 1.03

Set 5
Target: FOS, bZIP domain (human)
Method: DHFR protein complementation
Matrix: yeast
Setting: single substitutions, most at no-binding floor
Reference: wild-type JUN-FOS pair
Reading: higher = stronger binding
Endpoint: binding fitness
Starting sequence: JUN, bZIP domain (human); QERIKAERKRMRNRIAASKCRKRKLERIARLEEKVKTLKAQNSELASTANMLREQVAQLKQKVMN; partner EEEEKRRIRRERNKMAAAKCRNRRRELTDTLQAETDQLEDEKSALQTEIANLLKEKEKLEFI
R53V: -1.03 natural log
I28M: -0.0903 natural log
E44A: -0.0425 natural log
R53M: -0.734 natural log
S47G: -0.0628 natural log
L52H: -1.25 natural log
S43A: 0.124 natural log
Q55Y: -0.207 natural log
Q41W: -1.02 natural log
Q55D: -0.375 natural log
A29F: -0.245 natural log
M51Y: -0.108 natural log
E44Y: -0.349 natural log
K39Q: -0.318 natural log
A49C: -0.174 natural log
R30D: 0.11 natural log
R53I: -0.962 natural log

Further values, each from its own experiment
PhoQ, residues 284 288 289 292 302 303 TNASYF
fold induction (PhoP, residues 12 14 15 18 19 AQALL (Escherichia coli, UniProt P23836); Sort-seq, item: YFP reporter; E. coli; PhoQ-PhoP variant library, added: 10 µM Mg2+; reference: high Mg2+ state, higher = stronger signaling): 12.2

For quick reference, copied from above (set 5):
I28M: -0.0903 natural log
E44A: -0.0425 natural log
R53M: -0.734 natural log
S47G: -0.0628 natural log
L52H: -1.25 natural log
S43A: 0.124 natural log
Q55Y: -0.207 natural log
